Results gathered from unrelated publications.
Each numbered part is a random draw from the data of one study; scales do not carry over between parts. Changes are numbered by the printed parent chain.

Series 1 — method: universal PBM; form: double-stranded DNA, one strand shown; medium: in vitro; tested at: 600 nM; direction: higher = stronger binding
Target: Sal-like protein 4, full length isoform A (SALL4, Homo sapiens, UniProt Q9UJQ4, residues 1-1053)
Sequence of UniProt Q9UJQ4 (whole entry, looked up): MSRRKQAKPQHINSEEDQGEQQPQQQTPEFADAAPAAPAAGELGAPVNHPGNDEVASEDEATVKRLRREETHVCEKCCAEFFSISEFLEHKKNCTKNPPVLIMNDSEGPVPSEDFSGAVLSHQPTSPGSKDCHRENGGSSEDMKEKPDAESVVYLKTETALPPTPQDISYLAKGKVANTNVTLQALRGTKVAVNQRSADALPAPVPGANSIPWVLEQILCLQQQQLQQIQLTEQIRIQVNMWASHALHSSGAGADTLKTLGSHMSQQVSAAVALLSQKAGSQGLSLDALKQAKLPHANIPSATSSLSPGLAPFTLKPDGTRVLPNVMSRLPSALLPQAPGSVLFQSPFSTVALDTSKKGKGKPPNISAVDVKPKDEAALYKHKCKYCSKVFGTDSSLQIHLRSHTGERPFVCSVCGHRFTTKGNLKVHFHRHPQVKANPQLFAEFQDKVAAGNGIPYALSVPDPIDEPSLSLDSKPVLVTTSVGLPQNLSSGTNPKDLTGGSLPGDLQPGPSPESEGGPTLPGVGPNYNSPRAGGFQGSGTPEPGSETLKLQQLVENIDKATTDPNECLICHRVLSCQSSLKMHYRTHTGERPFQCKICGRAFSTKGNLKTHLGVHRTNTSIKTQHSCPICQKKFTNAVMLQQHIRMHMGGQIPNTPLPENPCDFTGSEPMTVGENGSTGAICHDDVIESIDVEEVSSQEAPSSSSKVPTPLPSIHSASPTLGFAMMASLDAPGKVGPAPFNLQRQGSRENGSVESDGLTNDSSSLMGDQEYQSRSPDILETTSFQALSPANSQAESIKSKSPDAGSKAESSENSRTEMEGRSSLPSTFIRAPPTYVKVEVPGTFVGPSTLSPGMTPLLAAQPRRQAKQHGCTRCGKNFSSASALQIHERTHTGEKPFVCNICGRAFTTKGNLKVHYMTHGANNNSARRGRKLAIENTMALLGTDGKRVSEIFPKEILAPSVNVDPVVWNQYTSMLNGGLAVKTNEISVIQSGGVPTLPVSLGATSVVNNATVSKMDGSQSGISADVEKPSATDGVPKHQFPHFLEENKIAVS
Notes: 8-mer, flanks averaged, mean of replicates
With `GATTACCC` the E-score was 0.0372.
For `CTGACAGA`, the E-score was 0.0481.
For `AGTTACGG`, the E-score was 0.0314.
`CGAGAAGA` gave an E-score of -0.0251.
With `ACTGTCTC` the E-score was -0.1.
The E-score of `GATTATCA` is reported as 0.246.
`ATCTTGGA` gave an E-score of 0.0943.
With `AAGCCCAG` the E-score was -0.172.
`GGGACGAC` has an E-score of -0.245.
With `CGATGAGC` the E-score was -0.242.
For `CGCTAAGA`, the E-score was -0.102.
The E-score of `CACCTAAC` is reported as -0.0712.
For `GAGCTTAC`, the E-score was -0.0927.
`CAAGTCAG` gave an E-score of -0.213.
With `GGTGTCGA` the E-score was -0.195.
`CCCTAGCA` gave an E-score of -0.15.
`AGGTAGCC` has an E-score of -0.317.
`ACATTAAG` gave an E-score of 0.283.
The E-score of `ATTCGCTC` is reported as 0.116.
`CCGTATCA` gave an E-score of 0.0372.
For `CACCGGGG`, the E-score was -0.428.

Series 2 — method: protein binding microarray; form: double-stranded DNA, one strand shown; medium: in vitro; tested at: not given; baseline: not given; direction: higher = stronger binding
Target: Histone acetyltransferase KAT6A, both winged helices, GST fusion (KAT6A, Homo sapiens, UniProt Q92794, residues 1-181)
Notes: 8-mer, flanks averaged, mean of 2 arrays, mostly near background
Residues (chain): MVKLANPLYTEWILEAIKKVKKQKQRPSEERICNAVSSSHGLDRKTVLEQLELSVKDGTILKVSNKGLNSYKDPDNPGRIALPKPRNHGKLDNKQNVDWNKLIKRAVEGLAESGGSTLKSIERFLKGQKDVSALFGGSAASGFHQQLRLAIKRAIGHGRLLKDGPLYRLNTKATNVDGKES
For `ATAGCGAA`, the E-score was -0.0631.
`ATATTCCC` gave an E-score of 0.0926.
With `ATGCCTTA` the E-score was -0.153.
`ACTATTGA` has an E-score of -0.119.
The E-score of `AATCACTC` is reported as -0.198.
With `CCCCAGAG` the E-score was -0.214.
With `CGCTGTAC` the E-score was 0.178.
`CCGCCGGC` has an E-score of 0.397.
For `CAGCGAGG`, the E-score was -0.118.
For `ACGGCAAT`, the E-score was 0.279.
With `ACATCAGT` the E-score was -0.0544.
For `TACGCACA`, the E-score was 0.108.
`AGAGCCAG` has an E-score of -0.191.
`GTAACACA` gave an E-score of 0.0416.
The E-score of `TCGATGCA` is reported as -0.184.
For `TGATATAA`, the E-score was -0.025.
With `ACCTGAAC` the E-score was -0.16.
The E-score of `AAGTCCAC` is reported as -0.192.
`GTCCTCAA` gave an E-score of -0.0962.
With `ATCGCAAG` the E-score was -0.00777.
For `GCTCATAC`, the E-score was 0.0399.
With `ATTACAAA` the E-score was -0.092.
The E-score of `AAACGTTG` is reported as -0.0618.
`GGTTCTCA` has an E-score of -0.0519.
`ACCTATAC` has an E-score of -0.029.

Series 3 — method: RNA Bind-n-Seq; form: RNA; medium: in vitro; tested at: 365 nM; baseline: no-protein control; direction: higher = stronger binding
Target: RNA binding protein fox-1 homolog 2, RRM domain, GST-SBP tag (RBFOX2, Homo sapiens, UniProt O43251-10, residues 100-194)
Notes: natural RNA segment, single round, ends assumed
Residues (chain): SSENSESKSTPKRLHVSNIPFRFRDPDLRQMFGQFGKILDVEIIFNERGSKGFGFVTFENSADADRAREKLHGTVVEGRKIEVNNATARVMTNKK
Under “RBNS enrichment (R)”, `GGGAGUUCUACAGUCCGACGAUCUUGUGAACUGAGUUUGAAACAUGCCUGCUUUGGAGAGACUGGGGCAGUGAACACCCCAGCAGCCUUUCAGCAAAUUGGCUUUGGACAUGGACCCUUCUCAGCCUGUACCAUGGAAUUCUCGGGUGCCAA` is recorded as 0.683.
For `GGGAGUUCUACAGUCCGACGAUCUCUUAAGCAGUGCUCCACUAACGGUCACUCAGGGACCACCUACCCAGAACAGACGGGGAAUUGAAAUUUUUUACUCCCUCUACCCACUCCAGACAGAAGCUCAGGGUGUGUGGAAUUCUCGGGUGCCAA`, “RBNS enrichment (R)” read 0.261.
Under “RBNS enrichment (R)”, `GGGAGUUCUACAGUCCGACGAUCGCUUGUGACGAAUGAAUCUUGCAUUUUUUAGUGAUCGGAGAAGGGAUGGAUCAUAGGAUUCUGAUUUUAUGUGAAAUUUUGUCUAAUUCAUUAAAGCAGUUGCUUUUCCUUGGAAUUCUCGGGUGCCAA` is recorded as 1.05.
`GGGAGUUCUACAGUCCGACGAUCGGUGGGAAUGGGAUGGGGUGGACCUUCUCUUGCUUGGUGCUCCGCUAUUUGGAACAGUUCUUACACAUUUGCUGGGCCUGGCCUCUGAGAGGCCAUCUUCCACCCCCAGAUGGAAUUCUCGGGUGCCAA` — result for “RBNS enrichment (R)”: 0.785.
Under “RBNS enrichment (R)”, `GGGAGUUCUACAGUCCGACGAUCCUCCACCGAAGUGCUGGGGAGUUGCAGGACUUCAUUCAAAUAGGAAUAUCAGUCCAAGCAAGCUGAUACGUGAGUGGCAGUGGAUAGGAUUUGCUUAAUGGCUGAUGUAAUGGAAUUCUCGGGUGCCAA` is recorded as 0.446.
`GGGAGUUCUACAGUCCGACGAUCUAUGAGUAAGAAAUUGCAAUUUUGUAAACAUUCCUCGACUUGGUGGGGAGGAAUAAUUUUAUAAUUGCAUUUCCAGGUAUUUUUCAAGAUUACGAAAAUAUGCUACUCUGUGGAAUUCUCGGGUGCCAA` — result for “RBNS enrichment (R)”: 0.794.
Under “RBNS enrichment (R)”, `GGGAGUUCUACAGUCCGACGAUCCAGGGUCUAUUCCUUGCGUGGAUUAUGUGGCCGUAGCAUGUUACAGUUCAAACAUGUCUCCACUACCCUGUUAAGAGCAGCCUGGGAACGUACAGGCCAUCAAGACUAUUUGGAAUUCUCGGGUGCCAA` is recorded as 0.692.
Under “RBNS enrichment (R)”, `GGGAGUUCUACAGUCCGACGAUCGGGCCGCAGAUGGCAAAGGGAGUGCCUGGGCCUGGUGACCCAGGGCUGGAUCCACCCCUGCGGAGCCCUGGGCCAGGCAGGUGUCUGCUGCUCACCUGGCUCUGGAGGGCUGGAAUUCUCGGGUGCCAA` is recorded as 0.505.
`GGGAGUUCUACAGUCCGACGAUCGACUGCUUUCACUCGGCCUGAUGGACAAGCCCGCGUGUGUUCACGUCUGUGUGUAACUCACCCAGAGCAGAUCUGUGAGUCUCGAUGUGCUUUGUAAUCUCUGCUUGAGUUGGAAUUCUCGGGUGCCAA` — result for “RBNS enrichment (R)”: 0.696.
`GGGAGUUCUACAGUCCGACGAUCCUUGGGGCAGACCAUUCGUUUAUUUAGAGAAGAGCUAUACAUUCUUCUUUCUGGUCCCAUCUUAAACGUCUUCUGUUGUGCUGCACCCCAGAUGGUGUCUCAGAUGCUUUUGGAAUUCUCGGGUGCCAA` — result for “RBNS enrichment (R)”: 0.367.
Under “RBNS enrichment (R)”, `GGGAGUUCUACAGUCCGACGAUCUUCAUGGGCUCAUCUUUAAAGCUUUUACUAAAAGAUUUUCAGCUGAAUGGAACUCAUUAGCUGUGUGCAUAUAAAAAGAUCACAUCAGGUGGAUGGAGAGACAUUUGAUCUGGAAUUCUCGGGUGCCAA` is recorded as 0.592.
`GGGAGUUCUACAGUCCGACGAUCGAGACUGCAGGUGGGGGAGGUGGUGGGUUUUGGGGGGAUGUCCCCUAAUCCAGGAGUGCCCCCUCACUUGUCACCGAGUCUCCUCUAUUGCCUGCCUCUGCUGUGAAUUAUGGAAUUCUCGGGUGCCAA` — result for “RBNS enrichment (R)”: 2.15.

Series 4 — target: CCNE1, cyclin fold, Cln2 fusion (human); method: yeast growth competition, sequencing; medium: yeast; notes: weak parent motif; baseline: not given; direction: higher = stronger binding
Starting sequence: SLBP docking peptide (human); ARYKRKLLINDFG
`ARYKRKILINDFG [L7I]`: “normalised enrichment score” -0.263.
`ARYKRKLWINDFG [L8W]` — result for “normalised enrichment score”: 1.46.
Under “normalised enrichment score”, `ARYKRALLINDFG [K6A]` is recorded as 1.03.
Under “normalised enrichment score”, `ARYKRKLLWNDFG [I9W]` is recorded as 0.484.
`ARYKRKLLIADFG [N10A]`: “normalised enrichment score” 0.291.
`ARYKRKLLINDWG [F12W]` — result for “normalised enrichment score”: 0.188.
`ARYKCKLLINDFG [R5C]` — result for “normalised enrichment score”: 0.806.
For `ARYKRKHLINDFG [L7H]`, “normalised enrichment score” read -0.576.
For `ALYKRKLLINDFG [R2L]`, “normalised enrichment score” read 0.482.
`WRYKRKLLINDFG [A1W]`: “normalised enrichment score” 0.421.
For `ARYKRKLLPNDFG [I9P]`, “normalised enrichment score” read 0.69.
Under “normalised enrichment score”, `ARCKRKLLINDFG [Y3C]` is recorded as 0.148.
`ARYKRKLLINTFG [D11T]` — result for “normalised enrichment score”: 0.897.
Under “normalised enrichment score”, `ARYRRKLLINDFG [K4R]` is recorded as 0.0757.
For `ARYKHKLLINDFG [R5H]`, “normalised enrichment score” read 0.209.
Under “normalised enrichment score”, `ARYKRKLLINDPG [F12P]` is recorded as 0.237.
For `ARYKRKLLCNDFG [I9C]`, “normalised enrichment score” read 1.1.
Under “normalised enrichment score”, `ARYKRKLLFNDFG [I9F]` is recorded as 2.1.
Under “normalised enrichment score”, `ARYKRQLLINDFG [K6Q]` is recorded as 1.8.
`ARYKRKLDINDFG [L8D]` — result for “normalised enrichment score”: 0.164.
Under “normalised enrichment score”, `ARYCRKLLINDFG [K4C]` is recorded as -0.234.
Under “normalised enrichment score”, `ARYKRCLLINDFG [K6C]` is recorded as 1.56.
For `ARYKRKLTINDFG [L8T]`, “normalised enrichment score” read 0.087.
`ARYKRKLLINDFQ [G13Q]` — result for “normalised enrichment score”: 0.37.
`ARYKRKPLINDFG [L7P]`: “normalised enrichment score” 0.387.

Mixed results
`PhoQ, residues 284 288 289 292 302 303 SLANIV` gave a fold induction of 22.8 (PhoP, residues 12 14 15 18 19 TQAIL (Escherichia coli, UniProt P23836); Sort-seq, refers to: YFP reporter; E. coli; PhoQ-PhoP variant library, added: 10 µM Mg2+; baseline: high Mg2+ state, higher = stronger signaling).

Repeated from above (series 4):
For `ARYKRKLTINDFG [L8T]`, “normalised enrichment score” read 0.087.
`WRYKRKLLINDFG [A1W]`: “normalised enrichment score” 0.421.
`ARYKRKLLINDFQ [G13Q]` — result for “normalised enrichment score”: 0.37.
`ARYKRKLDINDFG [L8D]` — result for “normalised enrichment score”: 0.164.
Under “normalised enrichment score”, `ARYKRALLINDFG [K6A]` is recorded as 1.03.
For `ALYKRKLLINDFG [R2L]`, “normalised enrichment score” read 0.482.
For `ARYKRKHLINDFG [L7H]`, “normalised enrichment score” read -0.576.
Under “normalised enrichment score”, `ARYKRKLLWNDFG [I9W]` is recorded as 0.484.
For `ARYKRKLLPNDFG [I9P]`, “normalised enrichment score” read 0.69.
